Measured values collected from several papers.
Numbered parts are unrelated; each lists some results of a single study.
Chain of UniProt P10721 (whole entry, unmodified, looked up): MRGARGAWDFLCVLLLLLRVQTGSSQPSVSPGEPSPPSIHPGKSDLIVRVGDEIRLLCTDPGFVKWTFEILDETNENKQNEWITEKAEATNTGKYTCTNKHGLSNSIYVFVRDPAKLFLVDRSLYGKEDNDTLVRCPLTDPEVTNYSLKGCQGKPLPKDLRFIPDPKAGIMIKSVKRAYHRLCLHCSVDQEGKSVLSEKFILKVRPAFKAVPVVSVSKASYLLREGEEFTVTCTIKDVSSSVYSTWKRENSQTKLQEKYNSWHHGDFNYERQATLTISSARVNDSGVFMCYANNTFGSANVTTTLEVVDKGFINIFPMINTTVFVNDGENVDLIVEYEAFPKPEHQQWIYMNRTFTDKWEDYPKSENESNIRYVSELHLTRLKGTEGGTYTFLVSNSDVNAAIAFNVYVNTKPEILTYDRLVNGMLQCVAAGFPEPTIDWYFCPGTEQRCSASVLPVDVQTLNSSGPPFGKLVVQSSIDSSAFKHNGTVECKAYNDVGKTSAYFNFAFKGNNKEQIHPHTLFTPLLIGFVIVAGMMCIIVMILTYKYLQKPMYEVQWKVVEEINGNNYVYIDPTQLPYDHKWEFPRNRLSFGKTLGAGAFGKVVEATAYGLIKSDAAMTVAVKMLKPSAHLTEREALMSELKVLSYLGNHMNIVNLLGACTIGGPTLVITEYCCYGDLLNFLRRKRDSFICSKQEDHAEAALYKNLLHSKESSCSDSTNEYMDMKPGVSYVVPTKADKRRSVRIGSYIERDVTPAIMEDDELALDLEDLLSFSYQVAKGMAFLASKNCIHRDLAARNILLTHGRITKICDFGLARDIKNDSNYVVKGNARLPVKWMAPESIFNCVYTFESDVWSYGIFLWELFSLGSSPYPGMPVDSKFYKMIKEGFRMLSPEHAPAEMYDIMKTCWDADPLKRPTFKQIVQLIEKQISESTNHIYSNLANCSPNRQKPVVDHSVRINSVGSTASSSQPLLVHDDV
Chain of UniProt P31749 (whole entry, looked up): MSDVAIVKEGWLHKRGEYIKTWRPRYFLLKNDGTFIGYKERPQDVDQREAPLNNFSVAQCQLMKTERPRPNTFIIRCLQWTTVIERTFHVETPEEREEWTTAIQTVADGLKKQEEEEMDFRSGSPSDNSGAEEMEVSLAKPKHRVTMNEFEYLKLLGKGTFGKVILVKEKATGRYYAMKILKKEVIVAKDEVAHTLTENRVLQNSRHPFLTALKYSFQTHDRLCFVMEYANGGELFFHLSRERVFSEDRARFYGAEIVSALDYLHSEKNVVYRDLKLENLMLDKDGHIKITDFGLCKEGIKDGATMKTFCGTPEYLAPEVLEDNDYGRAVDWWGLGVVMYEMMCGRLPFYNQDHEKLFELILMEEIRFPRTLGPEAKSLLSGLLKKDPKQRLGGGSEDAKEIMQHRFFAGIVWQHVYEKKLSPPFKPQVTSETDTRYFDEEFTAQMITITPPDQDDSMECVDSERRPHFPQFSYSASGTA
Chain of UniProt Q16584 (whole entry, looked up): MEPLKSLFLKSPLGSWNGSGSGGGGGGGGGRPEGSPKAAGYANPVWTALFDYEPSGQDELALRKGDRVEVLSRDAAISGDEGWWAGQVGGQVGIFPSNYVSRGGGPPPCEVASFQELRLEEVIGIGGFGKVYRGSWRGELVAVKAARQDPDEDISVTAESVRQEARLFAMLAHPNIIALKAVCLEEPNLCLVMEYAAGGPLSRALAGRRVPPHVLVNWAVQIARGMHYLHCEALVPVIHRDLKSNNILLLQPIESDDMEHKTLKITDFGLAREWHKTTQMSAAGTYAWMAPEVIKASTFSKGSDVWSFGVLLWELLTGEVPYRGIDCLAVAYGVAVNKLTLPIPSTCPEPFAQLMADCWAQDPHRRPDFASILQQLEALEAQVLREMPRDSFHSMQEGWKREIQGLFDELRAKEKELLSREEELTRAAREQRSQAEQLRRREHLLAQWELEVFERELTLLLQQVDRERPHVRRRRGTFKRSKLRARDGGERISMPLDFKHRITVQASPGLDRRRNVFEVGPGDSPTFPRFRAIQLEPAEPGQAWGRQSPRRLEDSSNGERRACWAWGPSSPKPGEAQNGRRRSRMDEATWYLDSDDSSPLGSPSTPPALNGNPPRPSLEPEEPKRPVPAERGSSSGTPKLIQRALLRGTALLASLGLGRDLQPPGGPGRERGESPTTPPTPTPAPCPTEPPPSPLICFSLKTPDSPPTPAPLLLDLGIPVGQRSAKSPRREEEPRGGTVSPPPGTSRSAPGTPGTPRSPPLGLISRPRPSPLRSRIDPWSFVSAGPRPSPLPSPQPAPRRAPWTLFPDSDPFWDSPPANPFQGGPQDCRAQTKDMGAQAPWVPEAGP
Chain of UniProt Q9H3Y6 (whole entry, looked up): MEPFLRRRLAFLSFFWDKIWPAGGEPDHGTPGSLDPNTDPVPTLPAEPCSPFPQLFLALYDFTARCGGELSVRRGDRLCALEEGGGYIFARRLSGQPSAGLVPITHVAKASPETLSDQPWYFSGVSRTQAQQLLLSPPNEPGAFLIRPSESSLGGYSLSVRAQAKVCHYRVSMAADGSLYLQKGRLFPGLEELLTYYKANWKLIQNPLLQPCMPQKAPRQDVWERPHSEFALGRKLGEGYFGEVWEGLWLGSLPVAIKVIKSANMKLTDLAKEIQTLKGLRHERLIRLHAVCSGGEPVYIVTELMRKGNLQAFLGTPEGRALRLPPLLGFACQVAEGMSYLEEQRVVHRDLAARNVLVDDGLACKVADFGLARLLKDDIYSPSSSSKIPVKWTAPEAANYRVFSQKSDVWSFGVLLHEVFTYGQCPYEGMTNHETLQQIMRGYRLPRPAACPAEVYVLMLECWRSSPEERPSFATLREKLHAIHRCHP
Chain of UniProt Q9NRM7 (whole entry, looked up): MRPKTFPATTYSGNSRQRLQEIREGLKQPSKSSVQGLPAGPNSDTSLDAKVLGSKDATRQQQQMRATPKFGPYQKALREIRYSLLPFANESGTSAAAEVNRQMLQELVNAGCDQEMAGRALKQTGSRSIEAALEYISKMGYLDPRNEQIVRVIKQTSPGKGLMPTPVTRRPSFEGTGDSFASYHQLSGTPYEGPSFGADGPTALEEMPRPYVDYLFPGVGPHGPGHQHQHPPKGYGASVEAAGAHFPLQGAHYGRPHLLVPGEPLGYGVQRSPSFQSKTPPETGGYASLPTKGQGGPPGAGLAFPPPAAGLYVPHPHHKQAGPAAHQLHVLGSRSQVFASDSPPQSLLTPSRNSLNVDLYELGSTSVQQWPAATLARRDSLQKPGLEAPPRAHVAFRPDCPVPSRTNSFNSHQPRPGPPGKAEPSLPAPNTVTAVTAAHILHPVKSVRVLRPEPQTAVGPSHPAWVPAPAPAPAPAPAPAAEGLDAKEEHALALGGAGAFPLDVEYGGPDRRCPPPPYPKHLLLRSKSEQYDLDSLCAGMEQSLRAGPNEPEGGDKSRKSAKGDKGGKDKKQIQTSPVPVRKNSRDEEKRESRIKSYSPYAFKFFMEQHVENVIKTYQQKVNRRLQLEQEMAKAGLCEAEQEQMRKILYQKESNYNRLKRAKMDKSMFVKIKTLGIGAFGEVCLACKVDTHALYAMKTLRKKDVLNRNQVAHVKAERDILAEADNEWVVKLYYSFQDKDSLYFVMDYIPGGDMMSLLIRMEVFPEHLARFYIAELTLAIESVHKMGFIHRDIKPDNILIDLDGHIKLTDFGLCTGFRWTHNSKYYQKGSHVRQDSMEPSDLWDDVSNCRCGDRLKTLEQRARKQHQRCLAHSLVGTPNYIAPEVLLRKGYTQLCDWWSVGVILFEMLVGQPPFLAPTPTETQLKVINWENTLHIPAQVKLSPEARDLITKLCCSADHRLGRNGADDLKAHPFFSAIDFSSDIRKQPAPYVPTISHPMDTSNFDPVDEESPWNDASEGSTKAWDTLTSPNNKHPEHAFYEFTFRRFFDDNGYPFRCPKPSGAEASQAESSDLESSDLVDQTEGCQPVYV
Chain of UniProt Q13546 (whole entry, looked up): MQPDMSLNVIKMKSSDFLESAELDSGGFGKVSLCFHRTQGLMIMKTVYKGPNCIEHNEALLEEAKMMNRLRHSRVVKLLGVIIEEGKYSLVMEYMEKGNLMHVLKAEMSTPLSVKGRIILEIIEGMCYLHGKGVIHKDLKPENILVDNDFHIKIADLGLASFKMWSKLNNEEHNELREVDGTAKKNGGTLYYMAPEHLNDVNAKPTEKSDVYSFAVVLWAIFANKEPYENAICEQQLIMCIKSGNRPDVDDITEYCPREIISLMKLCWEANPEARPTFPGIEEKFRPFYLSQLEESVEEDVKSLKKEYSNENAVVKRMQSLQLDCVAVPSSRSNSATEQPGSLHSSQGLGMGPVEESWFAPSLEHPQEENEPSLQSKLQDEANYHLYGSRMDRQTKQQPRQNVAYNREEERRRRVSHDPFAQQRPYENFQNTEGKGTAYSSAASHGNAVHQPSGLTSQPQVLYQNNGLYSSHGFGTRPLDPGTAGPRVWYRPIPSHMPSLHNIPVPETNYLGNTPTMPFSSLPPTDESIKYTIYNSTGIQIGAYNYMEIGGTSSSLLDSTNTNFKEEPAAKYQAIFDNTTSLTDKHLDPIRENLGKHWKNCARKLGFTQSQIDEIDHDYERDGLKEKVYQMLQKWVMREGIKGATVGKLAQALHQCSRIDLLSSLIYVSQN

Sample 1 — host: mouse; medium: microsomes or S9; tested at: 2 µM; time: 0.5 h
`COC(=O)c1nccnc1C1=NC(C)(C(C)C)C(=O)N1` (stereo not drawn) has a remaining compound of 63.7%.
With `CCc1cc(CN2OCC(C)(C)C2=O)c(Cl)s1` the remaining compound was 1%.
`O=C(O)C(c1ccsc1)N1C[C@@H]2Oc3c(F)ccc(F)c3O[C@@H]2C1` (stereo partly drawn) has a remaining compound of 76.3%.

Sample 2 — target: panel of 300 human kinases; tested at: 0.5 µM; reading: higher = more selective
The Gini score of `O=C(Nc1cccc(Nc2nccc(Nc3cccc(C(F)(F)F)c3)n2)c1)C1CC1` is reported as 0.66.
With `Cc1ccc(NC2=CC(=O)c3sc(C)nc3C2=O)cc1` the Gini score was 0.58.
`Cc1cc(C)c(C=C2C(=O)Nc3ccccc32)[nH]1` has a Gini score of 0.6.

Sample 3 — effect on: cell-free assay; technique: competition with immobilised ligand; tested at: 1 µM
SMILES: C[C@H](NC(=O)c1cnc2n1[C@](C)(Cc1ccc(C#N)cc1)C(=O)N2c1cc(Cl)c(F)c(Cl)c1)C(=O)NC1(c2ccccn2)CC1
It gave 100% for remaining binding (Serine/threonine-protein kinase LATS2 (LATS2, Homo sapiens, UniProt Q9NRM7)).
Phosphatidylinositol 4-phosphate 3-kinase C2 domain-containing subunit beta (PIK3C2B, Homo sapiens, UniProt O00750) — remaining binding: 85%.
The remaining binding was 100% (Mast/stem cell growth factor receptor Kit (KIT, Homo sapiens, UniProt P10721, V559D/V654A)).
Mitogen-activated protein kinase kinase kinase 11 (MAP3K11, Homo sapiens, UniProt Q16584) — remaining binding: 100%.
For Tyrosine-protein kinase Srms (SRMS, Homo sapiens, UniProt Q9H3Y6): remaining binding read 100%.
The remaining binding was 100% (Epithelial discoidin domain-containing receptor 1 (DDR1, Homo sapiens, UniProt Q08345)).
It gave 83% for remaining binding (Mast/stem cell growth factor receptor Kit (KIT, Homo sapiens, UniProt P10721, L576P)).
Serine/threonine-protein kinase DCLK3 (DCLK3, Homo sapiens, UniProt Q9C098) — remaining binding: 100%.
It gave 100% for remaining binding (RAC-alpha serine/threonine-protein kinase (AKT1, Homo sapiens, UniProt P31749)).
It gave 100% for remaining binding (Receptor-interacting serine/threonine-protein kinase 1 (RIPK1, Homo sapiens, UniProt Q13546)).
The remaining binding was 100% (Phosphatidylinositol 4,5-bisphosphate 3-kinase catalytic subunit alpha isoform (PIK3CA, Homo sapiens, UniProt P42336, H1047Y)).

Sample 4 — technique: aptamer microarray, sandwich; form: DNA with 2'F-ANA; medium: in vitro; tested at: 200 nM; added: Cy3 exosite-II aptamer, 400 nM; reading: higher = stronger binding; sequence: GGTTGGTGTGGTTGG
Target: Prothrombin, mature alpha-thrombin (F2, Homo sapiens, UniProt P00734)
Notes: whole 15-mer aptamer, many near background
Under “mean fluorescence intensity”, `2'F-ANA at 1 9 10 12 14` is recorded as 54.6 a.u.
For `2'F-ANA at 3 6 8 11 12 15`, “mean fluorescence intensity” read 998 a.u.
`2'F-ANA at 1 2 3 6 7 8 9 11 12 15` — result for “mean fluorescence intensity”: 339 a.u.
Under “mean fluorescence intensity”, `2'F-ANA at 2 3 5 8 9 10 11 14 15` is recorded as 102 a.u.
`2'F-ANA at 3 5 12 14`: “mean fluorescence intensity” 65.3 a.u.
`2'F-ANA at 1 4 7 11 12 13 15` — result for “mean fluorescence intensity”: 185 a.u.
Under “mean fluorescence intensity”, `2'F-ANA at 1 2 3 5 6 7 8 9 11 13 15` is recorded as 54.1 a.u.
For `2'F-ANA at 1 3 4 6 10 13 14 15`, “mean fluorescence intensity” read 59.2 a.u.

Mixed results — cell line: mouse MPNST tumor cells; technique: high-content nuclear imaging; refers to: cell number; tested at: 10 µM; time: 12 h; notes: mean of 2 replicates; baseline: plate mean; reading: higher = more cells
The nuclei count of `Cc1ccc(Nc2ncc3c(n2)N(C)C(=O)N(c2cc(NC(=O)c4cccc(C(F)(F)F)c4)ccc2C)C3)cn1` is reported as -4.14 z-score.
The nuclei count of `Clc1cccc(COc2cncc(N3CCNCC3)n2)c1` is reported as 0.668 z-score.

Excerpt of the above (sample 1):
`COC(=O)c1nccnc1C1=NC(C)(C(C)C)C(=O)N1` (stereo not drawn) has a remaining compound of 63.7%.
With `CCc1cc(CN2OCC(C)(C)C2=O)c(Cl)s1` the remaining compound was 1%.
`O=C(O)C(c1ccsc1)N1C[C@@H]2Oc3c(F)ccc(F)c3O[C@@H]2C1` (stereo partly drawn) has a remaining compound of 76.3%.
